Experimental data from different studies.
Every numbered part comes from another study and shows a few of its results, in no order.
UniProt Q9WVH4, sequence (31-263, looked up): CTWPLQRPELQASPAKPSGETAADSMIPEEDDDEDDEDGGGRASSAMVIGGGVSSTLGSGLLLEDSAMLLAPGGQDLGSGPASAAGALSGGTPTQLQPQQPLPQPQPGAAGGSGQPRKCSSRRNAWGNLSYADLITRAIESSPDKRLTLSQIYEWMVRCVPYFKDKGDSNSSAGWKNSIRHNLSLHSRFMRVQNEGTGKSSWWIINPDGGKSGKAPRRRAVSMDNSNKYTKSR
UniProt Q13761, sequence (53-186, looked up): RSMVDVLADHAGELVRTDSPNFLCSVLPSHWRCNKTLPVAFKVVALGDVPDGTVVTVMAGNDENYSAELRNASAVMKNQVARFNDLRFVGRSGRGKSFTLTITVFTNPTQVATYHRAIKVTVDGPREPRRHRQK

Set 1 — observed: enzyme activity; action: inhibitor; tested at: 20 µM; setting: hit confirmation, with DTT
Target: Replicase polyprotein 1ab, main protease (rep, Severe acute respiratory syndrome coronavirus 2, UniProt P0DTD1)
Structure (SMILES) | inhibition
O=NN(CCCl)C(=O)NC1CCCCC1 | 2.6%
C[C@H]1COC2=C1C(=O)C(=O)c1c2ccc2c1CCCC2(C)C | 64.3%
N[C@@H](Cc1ccc(O)c(O)c1)C(=O)O | -24.8%

Set 2 — method: RNA Bind-n-Seq; molecule type: RNA; sample: in vitro; tested at: not given; setting: 4-mer, random 30-nt RNA, single round; together with: RocA, ADP, phosphate; reference: input library; direction: higher = stronger binding
Target: ATP-dependent RNA helicase DDX3X, helicase core (DDX3X, Homo sapiens, UniProt O00571, residues 132-607)
UniProt O00571, sequence (132-607, looked up): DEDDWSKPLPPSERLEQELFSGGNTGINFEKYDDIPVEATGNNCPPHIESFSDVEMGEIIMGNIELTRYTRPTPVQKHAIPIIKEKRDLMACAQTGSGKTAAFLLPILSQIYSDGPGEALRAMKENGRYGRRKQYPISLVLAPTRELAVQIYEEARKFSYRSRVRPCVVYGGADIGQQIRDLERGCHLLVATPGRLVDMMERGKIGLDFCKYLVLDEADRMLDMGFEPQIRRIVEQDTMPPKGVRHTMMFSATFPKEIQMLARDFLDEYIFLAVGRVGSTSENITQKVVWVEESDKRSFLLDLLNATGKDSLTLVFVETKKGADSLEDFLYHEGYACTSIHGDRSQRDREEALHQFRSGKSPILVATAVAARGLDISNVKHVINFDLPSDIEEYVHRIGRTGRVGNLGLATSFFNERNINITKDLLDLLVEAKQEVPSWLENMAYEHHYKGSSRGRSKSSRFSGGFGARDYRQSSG
Oligonucleotide | 4-mer enrichment [fold]
GGUA | 1.05
GACA | 0.818
AUAU | 0.903
UAUC | 0.737
CGGA | 1.25
GAUC | 0.843

Set 3 — observed: enzyme activity; action: inhibitor; tested at: 20 µM
Target: Replicase polyprotein 1ab, polymerase (rep, Severe acute respiratory syndrome coronavirus 2, UniProt P0DTD1)
SMILES | inhibition [%]
CC[C@H](NC(=O)c1c(O)c(-c2ccccc2)nc2ccccc12)c1ccccc1 | 2.31
C[C@@H]1O[C@@H](O[C@@H]2[C@@H](O)[C@H](OCCc3ccc(O)c(O)c3)O[C@H](CO)[C@H]2OC(=O)/C=C/c2ccc(O)c(O)c2)[C@H](O)[C@H](O)[C@H]1O | 28.4
CC(CN(C)C)CN1c2ccccc2CCc2ccccc21 (stereo not shown) | -5.03
O[C@H]1[C@H]2[C@H](O)CCCN2C[C@H]1O | -0.11
CNCC(O)c1ccc(O)c(O)c1 (racemic) | 0.98
CS(=O)(=O)N1CCN(Cc2cc3nc(-c4cccc5[nH]ncc45)nc(N4CCOCC4)c3s2)CC1 | 1.59
N[C@H]1C(O)O[C@H](CO)[C@@H](O)[C@@H]1O (stereo partly shown) | 7.15
FC(F)(F)c1ccc(CNc2ccc(Cc3c[nH]c4ncc(Cl)cc34)cn2)cn1 | -4.86
CN1CC(=O)N=C1NC(=O)Nc1cccc(Cl)c1 | 0.41
Oc1ccc(Cl)c2c1CCC2 | 2.2
CC(=O)N(CC(C)C(=O)O)c1c(I)cc(I)c(N)c1I (stereo not shown) | -1.89
Cc1nccn1CC1CCc2c(c3ccccc3n2C)C1=O (stereo not shown) | 24.8
COC(=O)C1=CO[C@@H](O[C@@H]2O[C@H](CO)[C@@H](O)[C@H](O)[C@H]2O)[C@@H]2C(CO)=CC[C@H]12 | 7.96
Nc1[nH]cnc2ncnc1-2 | 1.33

Single results of other studies
IRF1 DNA-binding domain: Interferon regulatory factor 1, DNA-binding domain (IRF1, Homo sapiens, UniProt P10914, residues 1-114)
UniProt P10914, sequence (1-114, looked up): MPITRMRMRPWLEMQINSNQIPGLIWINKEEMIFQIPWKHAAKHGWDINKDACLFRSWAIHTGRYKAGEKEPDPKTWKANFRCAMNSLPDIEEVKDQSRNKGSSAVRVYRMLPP
Molecule | target or system | test | system | setting | scale | endpoint | result
GAGGCCATGTCGCCAACGCCTCCTGGCGTTGGCGACATGGCCTCACACTC | FOXO3, forkhead domain (mouse, UniProt Q9WVH4, residues 31-263) | protein-binding microarray | hairpin DNA, in vitro | not given, whole hairpin DNA, median over replicate spots | reference: not given, higher = stronger binding | median fluorescence | 4920 a.u.
CCCCc1ncc(/C=C(\Cc2cccs2)C(=O)O)n1Cc1ccc(C(=O)O)cc1 | HEK-293T/ACE2 |  |  | concentration not given, 16 (unit not given) | reference: vehicle | viability | 103%
GAGGCCTGGTGTGGTTGGCCTCCTGGCCAACCACACCAGGCCTCACACTC | Runt-related transcription factor 3, Runt domain (RUNX3, Homo sapiens, UniProt Q13761, residues 53-186) | protein-binding microarray | hairpin DNA, in vitro | not given, whole hairpin DNA, median over replicate spots | reference: not given, higher = stronger binding | median fluorescence | 5140 a.u.
GAGGCCCAAAAGTGAAACGCCTCCTGGCGTTTCACTTTTGGGCCTCACAC | IRF1 DNA-binding domain | protein-binding microarray | hairpin DNA, in vitro | not given, whole hairpin DNA, median over replicate spots | reference: not given, higher = stronger binding | median fluorescence | 1270 a.u.
GAGGCCCGAACGCGAAACGCCTCCTGGCGTTTCGCGTTCGGGCCTCACAC (5mC at 35) | IRF1 DNA-binding domain | protein-binding microarray | hairpin DNA, in vitro | not given, whole hairpin DNA, median over replicate spots | reference: not given, higher = stronger binding | median fluorescence | 532 a.u.

Some of these lines once more (set 2):
Oligonucleotide | 4-mer enrichment [fold]
GGUA | 1.05
GACA | 0.818
AUAU | 0.903
UAUC | 0.737
